Measured values of several laboratories.
Each line is one published result; not all experiments were run side by side. “And” joins repeats or separate records; there may be more than shown. ± marks the error that the study gave.
rep main protease: Replicase polyprotein 1ab, main protease (rep, Severe acute respiratory syndrome coronavirus 2, UniProt P0DTD1)
rep papain-like protease: Replicase polyprotein 1ab, papain-like protease (rep, Severe acute respiratory syndrome coronavirus 2, UniProt P0DTD1)

Under “lipophilic ligand efficiency”, N#Cc1ccc(N2N=C(c3ccc(C(=O)O)cc3)CC2C2CCCC2)cc1Cl (stereo not shown) is recorded as 0.7 (Replicase polyprotein 1ab, nsp14 methyltransferase (rep, Severe acute respiratory syndrome coronavirus 2, UniProt P0DTD1)).
With Cc1cc(C(=O)COn2nnc3ccc(S(C)(=O)=O)cc32)c(C)n1C the Hill slope was 1.91 (rep main protease; protease activity, SAMDI-MS).
CCCCCCCCCCCCCCCC(=O)N[C@@H](CCC(=O)NCCOCCOCCC(=O)NCCOCCOCCC(=O)NCCCC[C@H](NC(=O)[C@H](CC(=O)O)NC(=O)[C@H](CC(C)C)NC(=O)[C@H](Cc1ccc(O)cc1)NC(=O)[C@H](CCCCN)NC(=O)[C@H](CO)NC(=O)[C@H](Cc1ccc(O)cc1)NC(=O)[C@H](CC(=O)O)NC(=O)[C@H](CO)NC(=O)[C@@H](NC(=O)[C@H](Cc1ccccc1)NC(=O)[C@@H](NC(=O)CNC(=O)[C@H](CCC(N)=O)NC(=O)[C@@H](CO)NC(=O)[C@@H](N)Cc1c[nH]cn1)[C@@H](C)O)[C@@H](C)O)C(=O)N[C@@H](CCCNC(=N)N)C(=O)N[C@@H](CCCNC(=N)N)C(=O)N[C@@H](C)C(=O)N[C@@H](CCC(N)=O)C(=O)N[C@@H](CC(=O)O)C(=O)N[C@@H](Cc1ccccc1)C(=O)N[C@H](C(=O)N[C@@H](CCC(N)=O)C(=O)N[C@@H](Cc1c[nH]c2ccccc12)C(=O)N[C@@H](CC(C)C)C(=O)N[C@@H](CC(C)C)C(=O)N[C@@H](CC(N)=O)C(=O)N[C@H](C(=O)NCC(=O)NCC(=O)N1CCC[C@H]1C(=O)N[C@@H](CO)C(=O)N[C@@H](CO)C(=O)NCC(=O)N[C@@H](C)C(=O)N1CCC[C@H]1C(=O)N1CCC[C@H]1C(=O)N1CCC[C@H]1C(=O)N[C@@H](CO)C(N)=O)[C@@H](C)O)C(C)C)C(=O)O gave a clearance of 0.897 mL/min/kg (rhesus monkey, plasma; intravenous, 15.3 µg/kg, single dose).
The Hill coefficient of O=c1c2cccc([N+](=O)[O-])c2[se]n1Cc1ccccc1 is reported as 1.44 ± 0.08 (rep main protease; FRET; SARS-CoV-2; main protease).
For CC(=O)Nc1ccc(S(=O)(=O)NNc2ncnc3sccc23)cc1, the ΔTm was 0.68 ± 0.04 °C (Replicase polyprotein 1ab, nsp3 macrodomain (rep, Severe acute respiratory syndrome coronavirus 2, UniProt P0DTD1); thermal stabilisation, differential scanning fluorimetry; 150 µM, SARS-CoV-2).
CC(C)[C@@H]1CC[C@@H](C)C[C@H]1n1[se]c2ccccc2c1=O gave an inhibition of 102% (rep main protease; enzyme activity, inhibitor; 40 µM, mean of repeats).
CNC(=O)C[C@H](Cc1ccncc1)NC(=O)[C@@H](Cc1cccc(Br)c1)NC(=O)[C@@H](N)Cc1ccsc1 has a remaining activity of 60.2% (rep main protease; 0.5229 µM).
O=C(CCl)N1CCN(S(=O)(=O)c2cccs2)CC1 has a kinact/Ki of 770 M⁻¹ s⁻¹ (rep main protease; inhibitor, biochemical).
The potency increase of CSCC[C@@H](C=O)NC(=O)[C@H](CC(C)C)NC(=O)[C@H](CC(C)C)NC(C)=O is reported as 5 to 10 fold (rep main protease; enzyme activity, inhibitor; enzyme 3 nM vs 125 nM; relative to: native 3CLpro over MBP-3CLpro).
With CCOC(=O)CC[C@@H](C(=O)OCC)n1[se]c2ccccc2c1=O the inhibition was 101% (rep main protease; enzyme activity, inhibitor; 40 µM).
For O=C1c2ccccc2C(=O)c2oc(-c3ccccc3)nc21, the ΔTm was -8.72 °C (rep papain-like protease; binding, differential scanning fluorimetry; higher = stronger stabilisation).
For Cc1ccc(O[C@H]2CCN(C)C2)cc1C(=O)N[C@H](C)c1cc(-c2cnn(C)c2)nc2ccccc12, “GFP/mCherry signal ratio” read 71 and 62.8 and 51 and 64.1 and 16.4 (rep papain-like protease; reporter gene, cell-based).
CNC(=O)CC[C@H](Cc1ccccc1)NC(=O)[C@@H](Cc1ccc(Cl)cc1Cl)NC(=O)[C@H](N)Cc1ccccc1[N+](=O)[O-] gave a remaining activity of 97.4% (rep main protease; 0.0001693 µM).
Cc1ccccc1[C@@H](C)N(C)Cc1cc(O)ccc1Cl has a ΔTm of 2.18 °C (rep papain-like protease; thermal stability, DSF).
With O=C(NC1CCC(F)(F)CC1)C(c1cncnc1)N(C(=O)C(F)Cl)c1ccc(OC(F)(F)F)cc1 (stereo not shown) the inhibition was 18.1% (rep main protease; enzyme activity, inhibitor; 34 nM).
For N#Cc1ccccc1-c1cc(-c2cccc(Cl)c2)c(=O)n(-c2cccnc2)c1, “fold improvement in inhibition” read > 10 fold (rep main protease; inhibitor, FRET; concentration not given; relative to: perampanel).

For quick reference, copied from above:
For N#Cc1ccccc1-c1cc(-c2cccc(Cl)c2)c(=O)n(-c2cccnc2)c1, “fold improvement in inhibition” read > 10 fold (rep main protease; inhibitor, FRET; concentration not given; relative to: perampanel).
